Experimental data gathered from unrelated publications.
Each line is one published result; not all experiments were run side by side. Values joined by “and” are separate records of one study, mostly repeats; a detail may differ. Numbers after ± are the reported error.

| Compound | test | test system | conditions | scale | endpoint | value |
| --- | --- | --- | --- | --- | --- | --- |
| N#[11C]c1ccc(-c2csc(NN=C3CCCC3)n2)cc1 | – | C57BL/6 mice, male, brain | intravenous, 3 MBq, 5 min | – | radioactivity uptake | 2.85 ± 0.38 %ID/g |
| CSCC[C@H](NC(=O)CNC(=O)[C@H](CCCCN)NC(=O)[C@H](CC(C)C)NC(=O)[C@@H]1CCCN1C(=O)[C@H](CO)NC(=O)[C@H](Cc1c[nH]cn1)NC(=O)[C@H](Cc1c[nH]c2ccccc12)NC(=O)[C@H](CCCNC(=N)N)NC(=O)[C@H](CC(C)C)NC(=O)[C@H](CCCNC(=N)N)NC(=O)[C@H](Cc1c[nH]c2ccccc12)NC(=O)[C@H](CS)NC(=O)CCCCCNC(=O)CN1CCN(CC(=O)O)CCN(CC(=O)O)CCN(CC(=O)O)CC1)C(=O)O [copper-64 labelled] | ex vivo biodistribution | BALB/c nude mice, bladder | intravenous, dose not given, 1 h, Huh-7 tumour-bearing | – | tissue uptake | 2.1 %ID/g |
| CN1Cc2cc(Cl)ccc2-n2c(nnc2C2CCN(c3cccc([18F])n3)CC2)C1 | PET two-tissue compartment model | rhesus monkey, male, striatum | intravenous, dose not given, 80 min scan, baseline scan | – | total volume of distribution | 1.08 ± 0.3 mL/cm3 |
| CCCCCCCCCCCCCCCC(=O)OCC(CSC[C@H](N)C(=O)N[C@@H](CO)C(=O)N[C@@H](CCCCN)C(=O)N[C@@H](CCCCN)C(=O)N[C@@H](CCCCN)C(=O)N[C@@H](CCCCN)C(=O)NCCCCCC(=O)N[C@@H](CCCCN)C(=O)N[C@@H](CC(C)C)C(=O)N[C@H](C(=O)N[C@@H](Cc1ccccc1)C(=O)N[C@@H](Cc1ccccc1)C(=O)N[C@@H](Cc1ccc2ccccc2c1)C(=O)O)C(C)C)OC(=O)CCCCCCCCCCCCCCC (stereo partly shown) | – | C57BL/6J mouse, serum | intraperitoneal, dose not given | – | serum creatinine | 43.4 µmol/L and 82.4 µmol/L and 49.1 µmol/L and 82.8 µmol/L |
| CC(=O)NCCCC[C@@H]1NC(=O)[C@H](Cc2c[nH]c3c(C)cccc23)NC(=O)[C@H]([C@@H](C)O)NC(=O)[C@H](CC(N)=O)NC(=O)[C@@H](NC(C)=O)C(C)(C)SSC(C)(C)[C@@H](C(=O)N[C@@H](Cc2ccc(OCCN)cc2)C(=O)N[C@@H](Cc2ccc3ccccc3c2)C(=O)NC2(C(=O)N[C@@H](CCC(=O)O)C(=O)N[C@@H](CC(N)=O)C(=O)N[C@@H](Cc3cccnc3)C(=O)N(C)CC(N)=O)CCOCC2)NC1=O | – | cynomolgus monkey, patellar tendon | intravenous, 1 mg/kg | – | tissue to plasma ratio | 113% |
| N=C(N)NCCC[C@@H](NC(=O)[C@H](N)Cc1c[nH]c2ccccc12)C(=O)N[C@H](CCCCN)C(=O)N[C@H](Cc1c[nH]c2ccccc12)C(=O)N[C@H](CCCNC(=N)N)C(=O)N[C@H](CCCCN)C(=O)N[C@H](Cc1c[nH]c2ccccc12)C(=O)N[C@H](CCCNC(=N)N)C(=O)N[C@H](CCCCN)C(=O)N[C@H](Cc1c[nH]c2ccccc12)C(=O)N[C@H](CCCNC(=N)N)C(=O)N[C@H](CCCCN)C(N)=O | – | mouse, urine | 30 mg/kg | – | Kim-1 level | 43.4 ng/mL |
| CC[C@H](C)[C@H](NC(=O)[C@H](CCC(N)=O)NC(=O)[C@H](Cc1c[nH]cn1)NC(=O)[C@H](C)NC(=O)[C@H](CC(C)C)NC(=O)[C@H](CCCCN)NC(=O)[C@H](CCC(N)=O)NC(=O)[C@@H](NC(=O)[C@@H](NC(=O)[C@@H]1CSSC[C@H](NC(=O)CNC(=O)[C@H](Cc2ccccc2)NC(=O)[C@H](CO)NC(=O)[C@H](CCCNC(=N)N)NC(=O)[C@H](CC(C)C)NC(=O)CNC(=O)[C@H](CCC(N)=O)NC(=O)[C@H](Cc2ccccc2)NC(=O)[C@H](CC(N)=O)NC(=O)[C@H](CC(N)=O)NC(=O)[C@H](CCSC)NC(=O)[C@H](CO)NC(=O)[C@H](CCC(N)=O)NC(=O)[C@H](CCCNC(=N)N)NC(=O)[C@@H](N)Cc2ccc(O)cc2)C(=O)N[C@@H](CCCNC(=N)N)C(=O)N[C@@H](Cc2ccccc2)C(=O)NCC(=O)N[C@@H]([C@@H](C)O)C(=O)N1)[C@@H](C)O)C(C)C)C(=O)N[C@@H](Cc1ccc(O)cc1)C(=O)N[C@@H](CCC(N)=O)C(=O)N[C@@H](Cc1ccccc1)C(=O)N[C@H](C(=O)N[C@@H](CC(=O)O)C(=O)N[C@@H](CCCCN)C(=O)N[C@@H](CC(=O)O)C(=O)N[C@@H](CCCCN)C(=O)N[C@@H](CC(=O)O)C(=O)N[C@@H](CC(N)=O)C(=O)N[C@H](C(=O)N[C@@H](C)C(=O)N1CCC[C@H]1C(=O)N[C@@H](CCCNC(=N)N)C(=O)N[C@@H](CO)C(=O)N[C@@H](CCCCN)C(=O)N[C@H](C(=O)N[C@@H](CO)C(=O)N1CCC[C@H]1C(=O)N[C@@H](CCC(N)=O)C(=O)NCC(=O)N[C@@H](Cc1ccc(O)cc1)C(=O)NCC(=O)O)[C@@H](C)CC)C(C)C)[C@@H](C)O | – | human EDTA plasma | time not given, after 5 freeze-thaw cycles | baseline: untreated samples | recovery | 91.4% |
| CSCC[C@H](N)C(=O)N[C@@H](C)C(=O)N[C@@H](CCCNC(=N)N)C(=O)N[C@@H](CCCNC(=N)N)C(=O)N[C@@H](CC(=O)O)C(=O)N[C@@H](CCCCN)C(=O)N[C@H](C(=O)N[C@@H](CC(=O)O)C(=O)N[C@@H](Cc1ccccc1)C(=O)N[C@@H](C)C(=O)N[C@@H](CCCNC(=N)N)C(=O)N[C@@H](CCCNC(=N)N)C(=O)N[C@@H](CCCNC(=N)N)C(=O)N[C@@H](CCCNC(=N)N)C(=O)NCCCCCC(=O)NCCCCC(NC(=O)CCCCCNC(=O)[C@H](CCCNC(=N)N)NC(=O)[C@H](CCCNC(=N)N)NC(=O)[C@H](CCCNC(=N)N)NC(=O)[C@H](CCCNC(=N)N)NC(=O)[C@H](C)NC(=O)[C@H](Cc1ccccc1)NC(=O)[C@H](CC(=O)O)NC(=O)[C@@H](NC(=O)[C@H](CCCCN)NC(=O)[C@H](CC(=O)O)NC(=O)[C@H](CCCNC(=N)N)NC(=O)[C@H](CCCNC(=N)N)NC(=O)[C@H](C)NC(=O)[C@@H](N)CCSC)[C@@H](C)O)C(=O)NCCCCC(NC(=O)C(CCCCNC(=O)CCCCCNC(=O)[C@H](CCCNC(=N)N)NC(=O)[C@H](CCCNC(=N)N)NC(=O)[C@H](CCCNC(=N)N)NC(=O)[C@H](CCCNC(=N)N)NC(=O)[C@H](C)NC(=O)[C@H](Cc1ccccc1)NC(=O)[C@H](CC(=O)O)NC(=O)[C@@H](NC(=O)[C@H](CCCCN)NC(=O)[C@H](CC(=O)O)NC(=O)[C@H](CCCNC(=N)N)NC(=O)[C@H](CCCNC(=N)N)NC(=O)[C@H](C)NC(=O)[C@@H](N)CCSC)[C@@H](C)O)NC(=O)CCCCCNC(=O)[C@H](CCCNC(=N)N)NC(=O)[C@H](CCCNC(=N)N)NC(=O)[C@H](CCCNC(=N)N)NC(=O)[C@H](CCCNC(=N)N)NC(=O)[C@H](C)NC(=O)[C@H](Cc1ccccc1)NC(=O)[C@H](CC(=O)O)NC(=O)[C@@H](NC(=O)[C@H](CCCCN)NC(=O)[C@H](CC(=O)O)NC(=O)[C@H](CCCNC(=N)N)NC(=O)[C@H](CCCNC(=N)N)NC(=O)[C@H](C)NC(=O)[C@@H](N)CCSC)[C@@H](C)O)C(N)=O)[C@@H](C)O (stereo partly shown) | – | C57BL/6 mouse female, thymus | dose not given, 3 h | baseline: total | tissue distribution | 0.73% and 0% and 0.61% |
| C[C@@H]1COCCN1c1nc(NCc2cccnc2C(F)(F)F)c2cccnc2n1 | metabolic stability | dog, hepatocytes | – | – | hepatocyte CLint | 3.5 µL/min/10⁶ cells |
| CCCC[C@H]1C(=O)N(C)[C@@H](CCCC)C(=O)N[C@@H](CCCNC(=O)CN2CCN(CC(=O)O)CCN(CC(=O)O)CCN(CC(=O)O)CC2)C(=O)N[C@H](C(=O)NCC(N)=O)CSCC(=O)N[C@@H](Cc2ccc(O)cc2)C(=O)N(C)[C@@H](C)C(=O)N[C@@H](CC(N)=O)C(=O)N2CCC[C@H]2C(=O)N[C@@H](Cc2c[nH]cn2)C(=O)N[C@@H](CC(C)C)C(=O)N(C)CC(=O)N[C@@H](Cc2c[nH]c3ccccc23)C(=O)N[C@@H](CO)C(=O)N[C@@H](Cc2c[nH]c3ccccc23)C(=O)N1C [gallium-68 labelled] | – | NOD/SCID mice, CHO-hPD-L1 xenograft, pancreas | 60 min, PBS pretreatment | – | tissue uptake | 1.66 ± 0.19 %ID/g |
| CC[C@H](C)[C@H](NC(=O)[C@H](CCCCN)NC(=O)CNC(=O)[C@H](CC(C)C)NC(=O)[C@H](Cc1ccccc1)NC(=O)[C@H](CCCCN)NC(=O)[C@H](CO)NC(=O)[C@H](Cc1ccccc1)NC(=O)[C@H](Cc1c[nH]c2ccccc12)NC(=O)[C@H](CCC(N)=O)NC(=O)[C@@H](NC(=O)[C@H](Cc1ccccc1)NC(=O)CCCCCNC(=O)CN1CCN(CC(=O)O)CCN(CC(=O)O)CCN(CC(=O)O)CC1)C(C)C)C(=O)N[C@@H](CCC(=O)O)C(=O)N1CCC[C@H]1C(=O)N[C@@H](CC(=O)O)C(=O)N[C@H](C(=O)N[C@@H](CO)C(=O)N[C@@H](CCC(N)=O)C(=O)N[C@H](C(=O)N[C@@H](CCC(N)=O)C(=O)N[C@@H](CC(=O)O)C(=O)N1CCC[C@H]1C(=O)N[C@@H](CC(N)=O)C(=O)N[C@@H](CC(=O)O)C(=O)N[C@@H](CCC(N)=O)C(=O)N[C@@H](Cc1ccc(O)cc1)C(=O)N[C@@H](CCC(=O)O)C(=O)N1CCC[C@H]1C(=O)N[C@@H](Cc1ccccc1)C(=O)O)C(C)C)C(C)C [copper-64 labelled] | dynamic PET | mouse, CT26 tumour, untreated, tumour | intravenous, 100 µCi/mouse, 70 s | – | SUVmean | 0.67 SUV |
| CCCCCCCCCCCCCCCC(=O)N[C@@H](CCC(=O)NCCOCCOCCC(=O)NCCOCCOCCC(=O)NCCCC[C@H](NC(=O)[C@H](CC(=O)O)NC(=O)[C@H](CC(C)C)NC(=O)[C@H](Cc1ccc(O)cc1)NC(=O)[C@H](CCCCN)NC(=O)[C@H](CO)NC(=O)[C@H](Cc1ccc(O)cc1)NC(=O)[C@H](CC(=O)O)NC(=O)[C@H](CO)NC(=O)[C@@H](NC(=O)[C@H](Cc1ccccc1)NC(=O)[C@@H](NC(=O)CNC(=O)[C@H](CCC(N)=O)NC(=O)[C@@H](CO)NC(=O)[C@@H](N)Cc1c[nH]cn1)[C@@H](C)O)[C@@H](C)O)C(=O)N[C@@H](CCCNC(=N)N)C(=O)N[C@@H](CCCNC(=N)N)C(=O)N[C@@H](C)C(=O)N[C@@H](CCC(N)=O)C(=O)N[C@@H](CC(=O)O)C(=O)N[C@@H](Cc1ccccc1)C(=O)N[C@H](C(=O)N[C@@H](CCC(N)=O)C(=O)N[C@@H](Cc1c[nH]c2ccccc12)C(=O)N[C@@H](CC(C)C)C(=O)N[C@@H](CC(C)C)C(=O)N[C@@H](CC(N)=O)C(=O)N[C@H](C(=O)NCC(=O)NCC(=O)N1CCC[C@H]1C(=O)N[C@@H](CO)C(=O)N[C@@H](CO)C(=O)NCC(=O)N[C@@H](C)C(=O)N1CCC[C@H]1C(=O)N1CCC[C@H]1C(=O)N1CCC[C@H]1C(=O)N[C@@H](CO)C(N)=O)[C@@H](C)O)C(C)C)C(=O)O | – | rhesus monkey, female | subcutaneous, 60 µg/kg once daily, 28 days | – | creatinine | 53.6 ± 9.6 µmol/L |
| [2H]C([2H])([18F])[C@]([2H])(N)C(=O)O | PET | athymic nude mice, U-87 MG | dose not given, 15 min post-injection | baseline: tumour over muscle | tumour-to-muscle ratio | 2.3 ± 0.29 |

For quick reference, copied from above:
| Compound | test | test system | conditions | scale | endpoint | value |
| --- | --- | --- | --- | --- | --- | --- |
| CC(=O)NCCCC[C@@H]1NC(=O)[C@H](Cc2c[nH]c3c(C)cccc23)NC(=O)[C@H]([C@@H](C)O)NC(=O)[C@H](CC(N)=O)NC(=O)[C@@H](NC(C)=O)C(C)(C)SSC(C)(C)[C@@H](C(=O)N[C@@H](Cc2ccc(OCCN)cc2)C(=O)N[C@@H](Cc2ccc3ccccc3c2)C(=O)NC2(C(=O)N[C@@H](CCC(=O)O)C(=O)N[C@@H](CC(N)=O)C(=O)N[C@@H](Cc3cccnc3)C(=O)N(C)CC(N)=O)CCOCC2)NC1=O | – | cynomolgus monkey, patellar tendon | intravenous, 1 mg/kg | – | tissue to plasma ratio | 113% |
